Experimental data pooled from the literature.
Each line is one published result; not all experiments were run side by side.
Cell line: CAKI-1

Structure (SMILES) | test | conditions | how to read | measurement | result
CCCCN1CCN(c2ccc3[nH]c(-c4ccc5[nH]c(-c6cc(OC)c(OC)c(OC)c6)nc5c4)nc3c2)CC1 | SRB | 10 µM, 48 h |  | growth percent | 87.9%
Cc1cc(-c2ccccc2)n(-c2nc(-c3ccc(Cl)cc3)c3c(NC(=O)c4ccccc4)nnc-3[nH]2)n1 | SRB | 10 µM, NCI60 single-dose screen | baseline: untreated | cell growth | 97.7%
CCCN1CCN(c2ccc3[nH]c(-c4ccc5[nH]c(-c6ccc(C(F)(F)F)cc6)nc5c4)nc3c2)CC1 | SRB | 10 µM, 48 h |  | growth percent | 59%
Cc1n[nH]c2nc(-c3ccc(Cl)cc3)c3c(NC(=O)c4ccccc4)nnc-3n12 | SRB | 10 µM, NCI60 single-dose screen | baseline: untreated | cell growth | 89.1%
O=c1ccn(Cc2cn(-c3cc4ccccc4oc3=O)nn2)c(=O)[nH]1 | NCI60 single-dose screen | 10 µM |  | growth percentage | 102%
CCCN1CCN(c2ccc3[nH]c(-c4ccc5[nH]c(-c6ccc(OCC)c(OCC)c6)nc5c4)nc3c2)CC1 | SRB | 10 µM, 48 h |  | growth percent | -18.9%
NNc1nc(-c2ccc(Cl)cc2)c2c(NC(=O)c3ccccc3)nnc-2[nH]1 | SRB | 10 µM, NCI60 single-dose screen | baseline: untreated | cell growth | 93.8%
S=C([S][Au-][P+](CCCCCC[P+]([Au-][S]C(=S)n1cccn1)(c1ccccc1)c1ccccc1)(c1ccccc1)c1ccccc1)n1cccn1 | cell growth, NCI-60 screen | renal cancer |  | log10 TGI | > -4
O=C1NC(c2ccccc2)(c2ccccc2)C(=O)N1Cc1cn(-c2c3ccccc3nc3ccccc23)nn1 | NCI60 single-dose screen | 10 µM |  | growth percentage | 73.5%
CCCCN1CCN(c2ccc3nc(-c4ccc5nc(-c6cc(OC)ccc6OC)[nH]c5c4)[nH]c3c2)CC1 | SRB | 10 µM, 48 h |  | growth percent | 106%
CCN(CC)c1ccc(C=NNC(=O)CSc2nc3ccccc3c(=O)n2Cc2ccc(S(N)(=O)=O)cc2)c(O)c1 | NCI five-dose screen |  |  | TGI | > 100 µM
O=C1NC(=NCc2cccs2)S/C1=C\c1ccc2ncccc2c1 | MTS | NCI60 panel |  | IC50 | > 10 µM
CCn1cc(-c2cc(Cn3ccoc3=N)cc3c2CCN([C@@H](C)c2cc(OC)ccn2)C3=O)c(C(F)(F)F)n1 | cell growth, inhibitor | 120 h |  | EC50 | 7.62 nM
Cn1cncc1C1=CN(c2ncnc3[nH]cnc23)CCS1 |  | renal cancer |  | GI50 | 7.4 µM
CCn1cc(-c2cc(Cn3ccnc3)cc3c2CCN([C@H](c2cc(OC)ccn2)C2CC2)C3=O)c(C(F)(F)F)n1 | cell growth, inhibitor | 120 h |  | EC50 | > 30000 nM
CCCCN1CCN(c2ccc3[nH]c(-c4ccc5[nH]c(-c6ccc(OCC)c(OCC)c6)nc5c4)nc3c2)CC1 | SRB | 10 µM, 48 h |  | growth percent | 27.7%
Cc1cc(C)n(-c2nc(-c3ccc(Cl)cc3)c3c(NC(=O)c4ccccc4)nnc-3[nH]2)n1 | SRB | 10 µM, NCI60 single-dose screen | baseline: untreated | cell growth | 73.9%
CCOc1ccc(-c2nc3cc(-c4nc5cc(N6CCN(C)CC6)ccc5[nH]4)ccc3[nH]2)cc1OCC | SRB | 10 µM, 48 h |  | growth percent | 40.8%
O=C(Nc1nnc2n3c(=S)[nH][nH]c3nc(-c3ccc(Cl)cc3)c1-2)c1ccccc1 | SRB | 10 µM, NCI60 single-dose screen | baseline: untreated | cell growth | 74.1%
